Published values gathered from unrelated publications.
Numbered parts are unrelated; each lists some results of a single study.
UniProt P42336, sequence (whole entry, unmodified, looked up): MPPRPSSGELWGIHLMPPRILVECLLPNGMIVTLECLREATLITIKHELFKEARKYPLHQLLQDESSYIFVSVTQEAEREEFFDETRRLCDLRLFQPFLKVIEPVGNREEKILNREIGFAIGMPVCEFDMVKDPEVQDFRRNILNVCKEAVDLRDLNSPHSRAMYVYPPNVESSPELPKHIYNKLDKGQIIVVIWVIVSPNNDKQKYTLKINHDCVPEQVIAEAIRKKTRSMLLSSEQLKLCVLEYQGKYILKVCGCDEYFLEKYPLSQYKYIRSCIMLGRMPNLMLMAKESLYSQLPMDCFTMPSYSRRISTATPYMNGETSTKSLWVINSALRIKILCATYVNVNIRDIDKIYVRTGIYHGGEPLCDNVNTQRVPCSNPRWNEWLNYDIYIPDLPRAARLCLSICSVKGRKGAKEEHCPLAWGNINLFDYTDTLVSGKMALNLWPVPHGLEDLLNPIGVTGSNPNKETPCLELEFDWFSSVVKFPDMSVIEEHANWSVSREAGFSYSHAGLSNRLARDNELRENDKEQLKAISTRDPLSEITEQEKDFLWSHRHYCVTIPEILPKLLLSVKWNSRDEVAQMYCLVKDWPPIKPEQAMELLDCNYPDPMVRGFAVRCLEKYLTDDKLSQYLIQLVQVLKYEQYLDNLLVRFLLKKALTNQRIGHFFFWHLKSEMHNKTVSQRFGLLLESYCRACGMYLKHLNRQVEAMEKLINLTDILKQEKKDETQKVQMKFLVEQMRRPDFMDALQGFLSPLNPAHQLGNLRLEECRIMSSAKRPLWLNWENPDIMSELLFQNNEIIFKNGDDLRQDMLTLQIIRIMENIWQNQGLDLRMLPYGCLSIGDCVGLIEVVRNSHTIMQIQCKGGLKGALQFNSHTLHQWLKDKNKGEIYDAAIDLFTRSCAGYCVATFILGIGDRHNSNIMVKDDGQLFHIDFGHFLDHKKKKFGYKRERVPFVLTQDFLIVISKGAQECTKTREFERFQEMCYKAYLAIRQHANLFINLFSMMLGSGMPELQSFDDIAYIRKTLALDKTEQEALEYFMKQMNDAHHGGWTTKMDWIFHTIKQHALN
UniProt Q5VT25, sequence (whole entry, looked up): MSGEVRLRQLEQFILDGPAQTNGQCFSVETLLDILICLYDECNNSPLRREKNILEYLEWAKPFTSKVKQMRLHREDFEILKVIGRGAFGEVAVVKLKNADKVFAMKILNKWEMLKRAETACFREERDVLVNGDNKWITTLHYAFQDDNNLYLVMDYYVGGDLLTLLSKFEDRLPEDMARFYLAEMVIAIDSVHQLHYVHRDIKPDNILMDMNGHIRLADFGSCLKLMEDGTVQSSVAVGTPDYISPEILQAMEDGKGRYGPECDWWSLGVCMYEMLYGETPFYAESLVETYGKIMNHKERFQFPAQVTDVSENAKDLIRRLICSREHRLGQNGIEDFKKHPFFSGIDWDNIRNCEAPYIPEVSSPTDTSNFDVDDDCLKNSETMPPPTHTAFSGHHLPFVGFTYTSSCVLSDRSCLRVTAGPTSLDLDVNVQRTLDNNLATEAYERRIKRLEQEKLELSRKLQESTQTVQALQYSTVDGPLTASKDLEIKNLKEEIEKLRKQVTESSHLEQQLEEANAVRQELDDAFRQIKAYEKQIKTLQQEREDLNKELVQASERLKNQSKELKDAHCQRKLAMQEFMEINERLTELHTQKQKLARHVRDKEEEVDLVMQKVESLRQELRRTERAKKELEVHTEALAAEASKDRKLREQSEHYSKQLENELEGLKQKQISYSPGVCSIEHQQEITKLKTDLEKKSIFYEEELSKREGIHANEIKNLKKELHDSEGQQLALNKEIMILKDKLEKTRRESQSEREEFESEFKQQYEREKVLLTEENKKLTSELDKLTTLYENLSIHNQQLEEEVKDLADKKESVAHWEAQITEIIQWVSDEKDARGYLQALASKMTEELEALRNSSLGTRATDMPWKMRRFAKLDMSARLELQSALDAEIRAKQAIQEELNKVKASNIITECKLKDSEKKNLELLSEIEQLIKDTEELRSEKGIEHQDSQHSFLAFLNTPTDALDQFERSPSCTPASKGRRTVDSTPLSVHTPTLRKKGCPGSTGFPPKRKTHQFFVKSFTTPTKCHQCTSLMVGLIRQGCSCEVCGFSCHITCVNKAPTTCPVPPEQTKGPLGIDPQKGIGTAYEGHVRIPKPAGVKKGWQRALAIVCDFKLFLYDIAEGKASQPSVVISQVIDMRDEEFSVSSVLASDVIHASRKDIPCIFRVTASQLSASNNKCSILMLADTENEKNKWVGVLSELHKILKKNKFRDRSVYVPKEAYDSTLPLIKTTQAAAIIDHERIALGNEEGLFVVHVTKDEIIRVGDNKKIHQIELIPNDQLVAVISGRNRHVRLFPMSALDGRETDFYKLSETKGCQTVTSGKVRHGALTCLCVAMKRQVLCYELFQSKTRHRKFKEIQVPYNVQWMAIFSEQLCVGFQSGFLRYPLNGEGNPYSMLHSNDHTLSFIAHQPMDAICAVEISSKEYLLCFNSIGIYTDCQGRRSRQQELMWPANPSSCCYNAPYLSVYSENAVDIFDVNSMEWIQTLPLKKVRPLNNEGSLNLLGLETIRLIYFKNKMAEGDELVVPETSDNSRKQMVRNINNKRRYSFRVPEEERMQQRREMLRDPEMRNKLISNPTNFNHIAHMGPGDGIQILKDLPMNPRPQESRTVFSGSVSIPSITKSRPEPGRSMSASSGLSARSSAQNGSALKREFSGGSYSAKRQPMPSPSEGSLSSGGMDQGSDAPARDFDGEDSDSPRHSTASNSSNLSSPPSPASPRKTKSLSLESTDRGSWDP
UniProt P42338, sequence (whole entry, looked up): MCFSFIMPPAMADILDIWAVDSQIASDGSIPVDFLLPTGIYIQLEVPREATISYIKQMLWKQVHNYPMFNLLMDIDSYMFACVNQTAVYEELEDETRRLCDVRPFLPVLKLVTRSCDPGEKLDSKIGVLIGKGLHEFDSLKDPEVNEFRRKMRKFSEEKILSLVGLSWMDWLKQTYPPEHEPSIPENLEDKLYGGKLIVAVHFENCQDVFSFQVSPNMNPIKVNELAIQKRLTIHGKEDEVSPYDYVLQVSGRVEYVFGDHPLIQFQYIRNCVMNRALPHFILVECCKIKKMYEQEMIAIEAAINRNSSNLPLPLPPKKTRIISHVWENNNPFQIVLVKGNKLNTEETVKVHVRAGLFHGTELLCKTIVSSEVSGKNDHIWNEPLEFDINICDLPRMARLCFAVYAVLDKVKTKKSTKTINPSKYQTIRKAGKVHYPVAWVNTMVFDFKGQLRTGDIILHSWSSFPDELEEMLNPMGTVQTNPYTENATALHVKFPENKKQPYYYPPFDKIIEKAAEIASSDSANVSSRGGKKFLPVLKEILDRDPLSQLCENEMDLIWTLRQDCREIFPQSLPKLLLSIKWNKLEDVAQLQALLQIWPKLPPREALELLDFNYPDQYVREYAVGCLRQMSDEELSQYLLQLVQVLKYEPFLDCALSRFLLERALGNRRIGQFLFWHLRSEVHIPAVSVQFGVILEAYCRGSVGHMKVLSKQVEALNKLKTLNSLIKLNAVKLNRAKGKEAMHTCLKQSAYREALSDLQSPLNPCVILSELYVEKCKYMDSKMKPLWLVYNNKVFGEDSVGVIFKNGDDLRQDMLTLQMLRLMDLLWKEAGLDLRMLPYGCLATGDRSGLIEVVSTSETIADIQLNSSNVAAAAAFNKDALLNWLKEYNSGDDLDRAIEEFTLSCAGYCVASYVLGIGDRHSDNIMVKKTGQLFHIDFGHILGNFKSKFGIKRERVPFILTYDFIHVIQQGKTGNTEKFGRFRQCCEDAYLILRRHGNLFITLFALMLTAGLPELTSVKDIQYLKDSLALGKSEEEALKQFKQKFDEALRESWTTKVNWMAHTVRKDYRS
UniProt Q13470, sequence (whole entry, looked up): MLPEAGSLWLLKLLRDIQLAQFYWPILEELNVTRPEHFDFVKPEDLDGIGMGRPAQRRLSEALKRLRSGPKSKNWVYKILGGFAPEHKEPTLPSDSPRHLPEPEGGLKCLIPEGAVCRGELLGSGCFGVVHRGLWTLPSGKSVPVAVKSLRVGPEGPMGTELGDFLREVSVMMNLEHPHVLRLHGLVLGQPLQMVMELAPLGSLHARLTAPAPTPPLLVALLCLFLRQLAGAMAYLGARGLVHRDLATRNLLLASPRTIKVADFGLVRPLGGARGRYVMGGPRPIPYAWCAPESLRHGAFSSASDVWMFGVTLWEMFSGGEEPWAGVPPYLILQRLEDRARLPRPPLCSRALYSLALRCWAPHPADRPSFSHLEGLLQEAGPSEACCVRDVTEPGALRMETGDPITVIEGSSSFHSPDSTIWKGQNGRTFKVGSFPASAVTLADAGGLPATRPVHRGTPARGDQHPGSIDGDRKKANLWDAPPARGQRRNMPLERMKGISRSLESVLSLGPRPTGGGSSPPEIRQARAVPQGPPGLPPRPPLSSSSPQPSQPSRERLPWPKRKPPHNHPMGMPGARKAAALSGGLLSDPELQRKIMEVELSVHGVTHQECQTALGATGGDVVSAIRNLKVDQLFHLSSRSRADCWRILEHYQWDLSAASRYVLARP

Sample 1 — action: inhibitor
SMILES: Cc1nc(Nc2ncc(C(=O)Nc3c(C)cccc3Cl)s2)cc(N2CCN(CCO)CC2)n1
target	setting	inhibition [%]
Dual specificity mitogen-activated protein kinase kinase 6 (MAP2K6, Homo sapiens, UniProt P52564)	10 µM	< 50
MAP/microtubule affinity-regulating kinase 4 (MARK4, Homo sapiens, UniProt Q96L34)	10 µM	< 50
Death-associated protein kinase 3 (DAPK3, Homo sapiens, UniProt O43293)	10 µM	< 50
Non-receptor tyrosine-protein kinase TNK1 (TNK1, Homo sapiens, UniProt Q13470)	10 µM	< 50
Tyrosine-protein kinase receptor UFO (AXL, Homo sapiens, UniProt P30530)	10 µM	< 50
Serine/threonine-protein kinase pim-3 (PIM3, Homo sapiens, UniProt Q86V86)	10 µM	< 50
Mitogen-activated protein kinase 12 (MAPK12, Homo sapiens, UniProt P53778)	10 µM	< 50
Insulin receptor (INSR, Homo sapiens, UniProt P06213)	1 µM	< 50
Tyrosine-protein kinase receptor Tie-1 (TIE1, Homo sapiens, UniProt P35590)	10 µM	< 50
Casein kinase I isoform gamma-3 (CSNK1G3, Homo sapiens, UniProt Q9Y6M4)	10 µM	< 50
Cyclin-dependent kinase 18 (CDK18, Homo sapiens, UniProt Q07002)	10 µM	< 50
Serine/threonine-protein kinase PAK 3 (PAK3, Homo sapiens, UniProt O75914)	10 µM	< 50

Sample 2 — effect on: enzyme activity; action: inhibitor; concentration: 10 µM
Target: Calcium/calmodulin-dependent protein kinase type II subunit alpha (CAMK2A, Homo sapiens, UniProt Q9UQM7)
UniProt Q9UQM7, sequence (whole entry, looked up): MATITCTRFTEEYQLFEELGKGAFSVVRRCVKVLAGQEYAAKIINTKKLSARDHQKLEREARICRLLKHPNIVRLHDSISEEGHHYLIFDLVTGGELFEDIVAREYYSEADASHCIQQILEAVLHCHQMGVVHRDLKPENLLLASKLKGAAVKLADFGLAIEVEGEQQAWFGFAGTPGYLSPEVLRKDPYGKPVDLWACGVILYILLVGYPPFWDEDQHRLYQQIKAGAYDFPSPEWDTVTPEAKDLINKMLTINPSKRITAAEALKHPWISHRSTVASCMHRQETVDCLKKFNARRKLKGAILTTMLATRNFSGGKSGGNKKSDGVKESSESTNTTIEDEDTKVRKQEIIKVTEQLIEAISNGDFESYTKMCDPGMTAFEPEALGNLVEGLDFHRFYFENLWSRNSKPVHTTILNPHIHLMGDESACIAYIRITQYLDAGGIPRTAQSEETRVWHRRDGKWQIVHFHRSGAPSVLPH
SMILES	inhibition [%]
NS(=O)(=O)c1cc(Cl)c(Cl)c(S(N)(=O)=O)c1	-3
CC(C)[C@H](C)CC[C@@H](C)[C@H]1CC[C@H]2[C@@H]3CC=C4C[C@@H](O)CC[C@]4(C)[C@H]3CC[C@]12C	33
COc1cc(/C=C/c2cc(O)cc(O)c2)ccc1O	-23
COc1cc([C@H]2Oc3ccc([C@H]4Oc5cc(O)cc(O)c5C(=O)[C@@H]4O)cc3O[C@@H]2CO)ccc1O	3
NCCCCCN	-48
CN(CCCN1c2ccccc2CCc2ccccc21)CC(=O)c1ccc(Cl)cc1	8
Nc1ncnc2c1ncn2CCOCP(=O)(O)O	-8
COc1cc(CO)ccc1O	2

Sample 3 — effect on: cell-free assay; method: competition with immobilised ligand; concentration: 1 µM
SMILES: CN([C@@H]1CCc2c(CC(=O)O)c3ccccc3n2C1)S(=O)(=O)c1ccc(F)cc1
target	remaining binding
Membrane-associated tyrosine- and threonine-specific cdc2-inhibitory kinase (PKMYT1, Homo sapiens, UniProt Q99640)	100%
Serine/threonine-protein kinase PRP4 homolog (PRPF4B, Homo sapiens, UniProt Q13523)	99%
Ribosomal protein S6 kinase alpha-5, C-terminal kinase domain (RPS6KA5, Homo sapiens, UniProt O75582)	79%
Cyclin-dependent kinase 11B (CDK11B, Homo sapiens, UniProt P21127)	100%
Phosphatidylinositol 4,5-bisphosphate 3-kinase catalytic subunit beta isoform (PIK3CB, Homo sapiens, UniProt P42338)	88%
Mitogen-activated protein kinase kinase kinase 5 (MAP3K5, Homo sapiens, UniProt Q99683)	100%
Vascular endothelial growth factor receptor 3 (FLT4, Homo sapiens, UniProt P35916)	95%
Insulin-like growth factor 1 receptor (IGF1R, Homo sapiens, UniProt P08069)	100%
Phosphatidylinositol 4,5-bisphosphate 3-kinase catalytic subunit alpha isoform (PIK3CA, Homo sapiens, UniProt P42336, H1047L)	100%
cAMP-dependent protein kinase catalytic subunit alpha (PRKACA, Homo sapiens, UniProt P17612)	100%
Death-associated protein kinase 1 (DAPK1, Homo sapiens, UniProt P53355)	100%
Mitogen-activated protein kinase kinase kinase 7 (MAP3K7, Homo sapiens, UniProt O43318)	100%
Cyclin-dependent kinase 4 (CDK4, Homo sapiens, UniProt P11802)	87%
Receptor-type tyrosine-protein kinase FLT3 (FLT3, Homo sapiens, UniProt P36888, N841I)	100%
Phosphatidylinositol 4,5-bisphosphate 3-kinase catalytic subunit alpha isoform (PIK3CA, Homo sapiens, UniProt P42336, E545A)	100%
Serine/threonine-protein kinase MRCK alpha (CDC42BPA, Homo sapiens, UniProt Q5VT25)	100%
Serine/threonine-protein kinase Chk1 (CHEK1, Homo sapiens, UniProt O14757)	100%
Mitogen-activated protein kinase 4 (MAPK4, Homo sapiens, UniProt P31152)	100%
SRSF protein kinase 3 (SRPK3, Homo sapiens, UniProt Q9UPE1)	100%
Megakaryocyte-associated tyrosine-protein kinase (MATK, Homo sapiens, UniProt P42679)	100%
Serine/threonine-protein kinase 35 (STK35, Homo sapiens, UniProt Q8TDR2)	100%
Ankyrin repeat and protein kinase domain-containing protein 1 (ANKK1, Homo sapiens, UniProt Q8NFD2)	100%
Mitogen-activated protein kinase 3 (MAPK3, Homo sapiens, UniProt P27361)	100%
Protein-tyrosine kinase 2-beta (PTK2B, Homo sapiens, UniProt Q14289)	100%
Serine/threonine-protein kinase 24 (STK24, Homo sapiens, UniProt Q9Y6E0)	100%

Sample 4 — species: mouse; medium: microsomes or S9; concentration: 2 µM; time: 0.5 h
Compound	remaining compound
Cc1nn(CC(O)Cn2cnc3c2c(=O)n(C)c(=O)n3C)c(C)c1Br (stereo not shown)	15.8%
CC1(NC(=O)c2ccc3cc[nH]c3n2)CC=CCC1 (stereo not shown)	3.44%
NCC1=CCCN(c2nc3c(cc2F)c(=O)c(C(=O)O)cn3-c2ncc(F)cc2Cl)C1	43%
COc1ccc2cc(C(=O)OCc3ccc(-n4nc(C)cc4C)cc3)[nH]c2c1	4.01%
O=c1c2ccc(F)cc2ncn1C/C=C/c1ccccc1	69.7%
CC(=O)NCCOC(=O)c1ccc(Cl)c(S(=O)(=O)N(C)C)c1	25.6%
COc1cc(=O)[nH]cc1C(=O)N1CCC(OCC2CCCC2)CC1	74.5%
Cc1ccc(C(C)C)c(OCC(O)CN2CCN(CCO)CC2)c1 (stereo not shown)	38.2%
COc1cc(N2CCC(N3CCN(C)CC3)CC2)ccc1Nc1ncc(Cl)c(Nc2ccccc2N)n1	72.5%
Nc1ccc(-c2ccc(S(=O)(=O)c3cccc(N)c3)cc2N)cc1	5.5%

For quick reference, copied from above (sample 3):
target	remaining binding
Insulin-like growth factor 1 receptor (IGF1R, Homo sapiens, UniProt P08069)	100%
Phosphatidylinositol 4,5-bisphosphate 3-kinase catalytic subunit alpha isoform (PIK3CA, Homo sapiens, UniProt P42336, H1047L)	100%
cAMP-dependent protein kinase catalytic subunit alpha (PRKACA, Homo sapiens, UniProt P17612)	100%
Death-associated protein kinase 1 (DAPK1, Homo sapiens, UniProt P53355)	100%
Mitogen-activated protein kinase kinase kinase 7 (MAP3K7, Homo sapiens, UniProt O43318)	100%
